Measurements from different studies.
Numbered parts are unrelated; each lists some results of a single study. Positions count from the first letter of the parent shown.

Sample 1
Target: CCNE1, cyclin fold, Cln2 fusion (human)
Technique: yeast growth competition, sequencing
Sample: yeast
Setting: strong parent motif
Relative to: not given
Reading: higher = stronger binding
Starting sequence: E2F1 docking peptide (human); PPVKRRLDLETDH; partner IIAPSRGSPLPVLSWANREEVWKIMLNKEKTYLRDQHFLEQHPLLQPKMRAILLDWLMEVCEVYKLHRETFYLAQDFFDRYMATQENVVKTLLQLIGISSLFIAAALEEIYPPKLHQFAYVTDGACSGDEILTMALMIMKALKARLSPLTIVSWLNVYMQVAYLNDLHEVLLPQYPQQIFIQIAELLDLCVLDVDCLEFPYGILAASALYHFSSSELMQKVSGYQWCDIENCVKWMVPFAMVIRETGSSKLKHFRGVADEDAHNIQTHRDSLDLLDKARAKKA
Substitution	normalised enrichment score
PPVKRRLDLETDF [H13F]	2.05
VPVKRRLDLETDH [P1V]	0.98
QPVKRRLDLETDH [P1Q]	1.29
PPVKRRLDLVTDH [E10V]	0.811
PPVKRREDLETDH [L7E]	-0.108
PPSKRRLDLETDH [V3S]	0.64
PPVKRRLDLETRH [D12R]	0.961
PPVKGRLDLETDH [R5G]	0.147
EPVKRRLDLETDH [P1E]	1.36
PPVKRRLDLKTDH [E10K]	0.104
PPVKRRLDLENDH [T11N]	1.15
PPVKRRLDLEYDH [T11Y]	3.49
PPVKRRLDLETDT [H13T]	1.56
PPVKRRLDLETFH [D12F]	2.77
PPVWRRLDLETDH [K4W]	0.23

Sample 2
Target: RNA binding protein fox-1 homolog 2, RRM domain, GST-SBP tag (RBFOX2, Homo sapiens, UniProt O43251-10, residues 100-194)
Technique: RNA Bind-n-Seq
Molecule type: RNA
Sample: in vitro
Concentration: 365 nM
Setting: natural RNA segment, single round, ends assumed
Relative to: no-protein control
Reading: higher = stronger binding
Target sequence (chain): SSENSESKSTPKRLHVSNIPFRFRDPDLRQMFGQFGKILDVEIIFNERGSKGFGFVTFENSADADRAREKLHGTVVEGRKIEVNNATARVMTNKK
Strand	RBNS enrichment (R)
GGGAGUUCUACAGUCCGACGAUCUCAGCUCCCAGGAUGUGUGGGGAGCUGUCCCUGACUCUGCAGGCCUGAGCGAGUGUGUGAGCAUGCGGGGACAUGGGUGUGUAUGGCACACAUAGGUGCGUGUGUGUCUUUGGAAUUCUCGGGUGCCAA	9.47
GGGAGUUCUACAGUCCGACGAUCCUUCUAUAUAAAACUUAAUACCAUUAGUUCCCCAUUCUUGACAUUUUAUUUCAGUUUUUAUUAUAUAUUUAUUUGAAAUAUUUAUUAAAUUAUCUGACCUACAGAACUAAUGGAAUUCUCGGGUGCCAA	1.55
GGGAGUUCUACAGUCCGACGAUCUUUUCUCUGCCACGGCAGCGCAAUGCAAAGAGCAGACAUGGCCUCUUGCUUCUCUUCACAGCCAUAGGAUAAUGAAUACUCAGGCCUGUUUGUUAAAAUGCUAUUUUUAAUGGAAUUCUCGGGUGCCAA	0.36
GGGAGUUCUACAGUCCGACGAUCUCAUAGUGAUGAAGGACAGCACUGCAGACAUCUCCCUUGCCAUCUCUAGCCUGCUGUGGAAGGAAACAACGUGACUCAAGAUGAAGCUGUUUGUAUGUAUCCUUAUCAAAUGGAAUUCUCGGGUGCCAA	2.48
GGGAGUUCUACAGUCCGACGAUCCUGUUAAAAGCAUUCAGUUUUAAAAGGGAAACAGACUAUAAAAGUUUGGAAAAUUUGCAGCCUGAUGAUGAGAUAGAAAAGAAAAACCCAUUUUCUGAGGAUAAAUUCAAUGGAAUUCUCGGGUGCCAA	0.709
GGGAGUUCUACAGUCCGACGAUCGGUUUGUGAGCUCUCUGCUCUGUUUUUGCUGUUUACUGGACUUUGGUUUCUUUCAUAACCCAUUUCUUUAACCUCUUGUCAAUGAAAAUAAAAAGAAGAGGAAGGAAGGAUGGAAUUCUCGGGUGCCAA	1.49
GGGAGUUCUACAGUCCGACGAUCGGUACCUCCCUCCCUGAAUUCCUGAGCCAGCAACUCUUACUGGCCCCUCCAUAGGGUCUUGCUGCCAGGGACAGGGAUGCUUUCCAGCCUGCAGCAACAGAACACUUGACUGGAAUUCUCGGGUGCCAA	0.329
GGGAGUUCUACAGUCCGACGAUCUGCUUGUAUUCUCGGACCUGGACUCUGACAUGCAGAGAAGAGCUGACCGUCCUGGUGAGGACCACUGACUCAGAUAAUGCACUUUCCCCUCUGAUCCUGGACUCCCCAUGUGGAAUUCUCGGGUGCCAA	5.31

Sample 3
Target: Ras GTPase-activating protein-binding protein 1, full length (G3BP1, Homo sapiens, UniProt Q13283)
Sequence of UniProt Q13283 (whole entry, looked up): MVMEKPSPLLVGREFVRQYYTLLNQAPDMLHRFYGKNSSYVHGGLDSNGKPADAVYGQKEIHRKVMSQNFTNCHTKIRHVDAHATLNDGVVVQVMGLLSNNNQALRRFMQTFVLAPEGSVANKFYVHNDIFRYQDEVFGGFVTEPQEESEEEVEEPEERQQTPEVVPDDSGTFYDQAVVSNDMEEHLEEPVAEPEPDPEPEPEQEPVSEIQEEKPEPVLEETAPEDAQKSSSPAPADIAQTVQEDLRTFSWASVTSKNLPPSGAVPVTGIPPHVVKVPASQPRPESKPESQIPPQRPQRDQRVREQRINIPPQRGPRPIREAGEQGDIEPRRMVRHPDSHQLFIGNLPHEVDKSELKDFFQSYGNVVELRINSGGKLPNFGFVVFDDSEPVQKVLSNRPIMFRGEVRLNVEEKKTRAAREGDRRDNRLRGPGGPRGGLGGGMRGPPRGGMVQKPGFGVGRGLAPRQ
Technique: RNA Bind-n-Seq
Molecule type: RNA
Sample: in vitro
Concentration: 200 nM
Setting: whole 134-nt RNA, ends assumed
Together with: 150 mM KCl
Relative to: input library
Reading: higher = stronger binding
Strand	log2 enrichment
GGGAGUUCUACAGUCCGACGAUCUCCUGUGCUACACAUCGUAUGUACCGAAUCGGGAAAAAGGGUUUUUUUGGGUUUUUGGGAAAGUAUUAUGUUACGCCGUUCGGAUCUGCAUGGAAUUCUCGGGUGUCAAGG	-0.62
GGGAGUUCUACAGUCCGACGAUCGUCCUGUGCUACACAUCGUAUGUACCGAAUCGGGGUUUUUGGGGUGGGGUUUUUGGGGAAAGUAUUAUGUUACGCCGUUCGGAUCUGCACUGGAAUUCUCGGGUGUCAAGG	0.254
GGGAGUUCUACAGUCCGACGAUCUCAAGUCCUGUGCUACACAUCGUAUGUACCGAAUCGGGAAAGGGAAAGGGUGGGAAAGUAUUAUGUUACGCCGUUCGGAUCUGCACUUCCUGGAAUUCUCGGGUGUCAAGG	1.09
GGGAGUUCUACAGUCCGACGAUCUGGGAGGUGGAUUUUGUUUAUUUUUUUAGCUCAUUUCCAGGGGUGGGCAUUUUUUUUUAAUAUGUGUCAUGAAUAAAGUUGUUUUUGAAAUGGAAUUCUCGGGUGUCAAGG	0.287
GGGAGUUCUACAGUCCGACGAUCGUGCUACACAUCGUAUGUACCGAAUCGGGGUUUUUUUGGGGAAAAAAAGGGGUUUUUUUGGGGAAAGUAUUAUGUUACGCCGUUCGGAUCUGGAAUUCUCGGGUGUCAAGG	-0.274
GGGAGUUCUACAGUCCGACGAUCCACAGACAACACGCACCCACACAGACACAGAGGGAAGGGGUUGGGUUGGGGACAGGGUGCACAGCAGGGCGGGGUAGGACCCCAGCCCCUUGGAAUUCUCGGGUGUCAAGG	1.87
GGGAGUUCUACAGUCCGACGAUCAAGUCCUGUGCUACACAUCGUAUGUACCGAAUCGGGAGGGAAAAAGGGAAAAAGGGAAAGUAUUAUGUUACGCCGUUCGGAUCUGCACUUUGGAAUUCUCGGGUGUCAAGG	0.202
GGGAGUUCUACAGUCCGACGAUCCACAGACAACACGCACCCACACAGACACAGAGGGAAGGGGUUGGGAUGGGGACAGGGUGCACAGCAGGGCGGGUUAGGACCCCAGCCCCUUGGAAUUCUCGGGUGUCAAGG	2.05
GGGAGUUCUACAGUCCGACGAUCGUCCUGUGCUACACAUCGUAUGUACCGAAUCGGGAAAAAAGGGAAAAAAGGAAAAAAGGAAAGUAUUAUGUUACGCCGUUCGGAUCUGCAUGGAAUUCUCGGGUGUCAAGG	-0.611

Sample 4
Target: PABPC1L2, full length, GST fusion (mouse, UniProt A0ABA7IW68)
Technique: RNAcompete
Molecule type: RNA
Sample: in vitro
Concentration: 20 nM
Setting: 7-mer, probes averaged, single round
Relative to: mean of 7-mers
Reading: higher = stronger binding
Residues (chain): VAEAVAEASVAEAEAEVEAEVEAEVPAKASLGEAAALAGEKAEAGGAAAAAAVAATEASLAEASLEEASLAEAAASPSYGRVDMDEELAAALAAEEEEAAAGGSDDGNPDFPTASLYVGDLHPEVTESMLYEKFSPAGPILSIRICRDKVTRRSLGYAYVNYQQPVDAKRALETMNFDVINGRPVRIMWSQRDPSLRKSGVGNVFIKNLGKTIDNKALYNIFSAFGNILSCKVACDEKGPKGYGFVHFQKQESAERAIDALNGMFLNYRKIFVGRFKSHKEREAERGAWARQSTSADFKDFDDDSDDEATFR
Strand	7-mer Z-score
AAGCUCU	-0.209
UAGGUCU	-0.119
AAUGAUU	0.0986
AGUUGAG	-0.199
GCAUGUU	-0.251
UUCUCGU	-0.418
AUGACGU	-0.175
GGUGAUA	0.0696
GGUGCCA	0.24
GACUGCU	-0.222
GACAUAC	-0.0373
UCGAUAU	-0.278
AAUUGGC	0.365
GAAUAAU	0.0533
GUACUAC	-0.0899
ACCUAUU	-0.271
AAAGUCU	0.858
GGCCGGU	-0.113
GCGGCGC	-0.142

Some of these lines once more (sample 2):
Strand	RBNS enrichment (R)
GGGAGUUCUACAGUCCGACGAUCUUUUCUCUGCCACGGCAGCGCAAUGCAAAGAGCAGACAUGGCCUCUUGCUUCUCUUCACAGCCAUAGGAUAAUGAAUACUCAGGCCUGUUUGUUAAAAUGCUAUUUUUAAUGGAAUUCUCGGGUGCCAA	0.36
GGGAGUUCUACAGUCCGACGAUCUCAUAGUGAUGAAGGACAGCACUGCAGACAUCUCCCUUGCCAUCUCUAGCCUGCUGUGGAAGGAAACAACGUGACUCAAGAUGAAGCUGUUUGUAUGUAUCCUUAUCAAAUGGAAUUCUCGGGUGCCAA	2.48
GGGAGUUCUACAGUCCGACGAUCCUGUUAAAAGCAUUCAGUUUUAAAAGGGAAACAGACUAUAAAAGUUUGGAAAAUUUGCAGCCUGAUGAUGAGAUAGAAAAGAAAAACCCAUUUUCUGAGGAUAAAUUCAAUGGAAUUCUCGGGUGCCAA	0.709
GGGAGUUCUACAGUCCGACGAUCGGUUUGUGAGCUCUCUGCUCUGUUUUUGCUGUUUACUGGACUUUGGUUUCUUUCAUAACCCAUUUCUUUAACCUCUUGUCAAUGAAAAUAAAAAGAAGAGGAAGGAAGGAUGGAAUUCUCGGGUGCCAA	1.49
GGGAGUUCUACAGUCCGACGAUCGGUACCUCCCUCCCUGAAUUCCUGAGCCAGCAACUCUUACUGGCCCCUCCAUAGGGUCUUGCUGCCAGGGACAGGGAUGCUUUCCAGCCUGCAGCAACAGAACACUUGACUGGAAUUCUCGGGUGCCAA	0.329
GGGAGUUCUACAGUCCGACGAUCUGCUUGUAUUCUCGGACCUGGACUCUGACAUGCAGAGAAGAGCUGACCGUCCUGGUGAGGACCACUGACUCAGAUAAUGCACUUUCCCCUCUGAUCCUGGACUCCCCAUGUGGAAUUCUCGGGUGCCAA	5.31
